Measurements collected from several papers.
Each line is one published result; not all experiments were run side by side. Several values in a cell are separate wells, animals, samples, runs or records. ± gives the spread as reported.

For `Oc1ccc(C(c2ccc(O)cc2)(C(F)(F)F)C(F)(F)F)cc1`, the viable cells was 44.2 ± 2.8% (HepG2 spheroids, dissociated; annexin V-FITC/PI flow cytometry; 1 µM, 96 h).
With `COc1ccc2c(Sc3ccc(Cl)cc3)c(C(=O)NCCCN3CCCCC3)[nH]c2c1` the maximum response was -2% (Vero-E6; CellTiter-Glo ATP; 72 h, second round 5-point; relative to: DMSO 0%, hyamine -100%, more negative, more toxic).
`O=S(=O)(c1ccc(-c2ccc3nccc(Nc4ccc(OCc5cccc(F)c5)cc4)c3c2)cc1)N1CCOCC1` gave a TC50 of > 20 µM (NIH 3T3; cytotoxicity, PrestoBlue; 96 h, 2% FBS).
The viable cells of `Cc1cc(C(C)(C)c2ccc(O)c(C)c2)ccc1O` is reported as 71.4 ± 6.49% (HepG2 spheroids, dissociated; annexin V-FITC/PI flow cytometry; 0.1 µM, 24 h).
`COc1ccnc(C(=O)N[C@H]2COC(=O)[C@H](Cc3ccccc3)[C@@H](OC(=O)C(C)C)[C@H](C)OC2=O)c1OCOC(=O)C(C)C` — result for chromosomal aberration: “positive” (rat lymphocytes; in vitro, outcome positive).
The TC50 of `CN1CCCN(S(=O)(=O)c2ccc(-c3ccc4nncc(Nc5ccc(OCc6cccc(F)c6)c(Cl)c5)c4c3)cc2)CC1` is reported as 27 µM (NIH 3T3; PrestoBlue; 2% FBS medium; 96 h).
With `CC(C)C[C@@H](N)C(=O)N[C@H](CC(C)C)C(=O)N[C@H](Cc1ccccc1)C(=O)N[C@H](Cc1ccccc1)C(N)=O` the viability was 46.9% (NGF-differentiated PC-12 neurons; 80 µM, 24 h; relative to: untreated).
`CC(c1ccccc1)(c1ccc(O)cc1)c1ccc(O)cc1` — result for “late apoptotic cells”: 29.9 ± 18.5% (HepG2 spheroids, dissociated; annexin V-FITC/PI flow cytometry; 0.01 µM, 96 h).
`COc1ccc(Nc2nn3c(-c4ccccc4)ccnc3c2C(=O)Nc2ccccc2)cc1` gave a viability of 70.8% (WI-38; MTT; serum-free medium; 125.00 µg/mL, 48 h).
The uptake of `CC[C@H](C)[C@H](NC(=O)[C@@H](N)CC(N)=O)C(=O)N1CCC[C@H]1C(=O)N1CCC[C@H]1C(=O)N[C@@H](CC(C)C)C(=O)N[C@H](C(=O)N[C@@H](CCC(N)=O)C(=O)N[C@H](C(=O)N1CCC[C@H]1C(=O)N[C@H](C(=O)N[C@H](C(=O)N[C@H](C(=O)N1CCC[C@H]1C(=O)N1CCC[C@H]1C(=O)N[C@@H](Cc1ccccc1)C(=O)N[C@@H](CC(C)C)C(=O)N[C@@H](CCC(N)=O)C(=O)N1CCC[C@H]1C(=O)N[C@@H](CCC(=O)O)C(=O)O)C(C)C)C(C)C)C(C)C)[C@@H](C)O)[C@@H](C)O` is reported as 0.021 pmol/mg protein (HEK293 (empty vector); 10 µM, 5 min, 37 °C).
For `CC(C)C[C@@H](N)C(=O)N[C@H](Cc1ccccc1)C(=O)N[C@H](Cc1ccccc1)C(=O)N[C@H](C)C(=O)N[C@H](CCC(=O)O)C(N)=O`, the viability was 81.6% (NGF-differentiated PC-12 neurons; 10 µM, 24 h; relative to: untreated).
With `O=S(=O)(c1ccc(-c2ccc3nccc(Nc4ccnnc4)c3c2)cc1)N1CCOCC1` the TC50 was > 20 µM (NIH 3T3; cytotoxicity, PrestoBlue; 96 h, 2% FBS).
`CC(C)C[C@@H](NC(=O)[C@H](N)CCCCN)C(=O)N[C@H](CC(C)C)C(=O)N[C@H](Cc1ccccc1)C(=O)N[C@H](Cc1ccccc1)C(=O)N[C@H](C)C(=O)N[C@H](CCC(=O)O)C(N)=O` gave a viability of 100% (NGF-differentiated PC-12 neurons; 20 µM, 24 h; relative to: untreated).
`CN(C)c1ccc(C(Nc2nc3c(-c4ccc([N+](=O)[O-])cc4)nn(-c4ccccc4)c3s2)P(=O)(Oc2ccccc2)Oc2ccccc2)cc1` (stereo not shown) has a viability of 73% (BNL mouse liver cells; SRB; 100 µM, 10% fetal bovine serum).
`O=c1ccc2ccccc2o1` — result for “point of departure”: 528 µM (HepG2; item: cellular ATP; 24 h).
`CN(CCC=C1c2ccccc2CCc2ccccc21)N=O` has a relative survival of 51.9% (TK6; 5 µM, 4 h, with: hamster liver S9; relative to: vehicle).
The viability of `CC(C)C[C@@H](N)C(=O)N[C@H](Cc1ccccc1)C(=O)N[C@H](Cc1ccccc1)C(=O)N[C@H](C)C(N)=O` is reported as 78.3% (NGF-differentiated PC-12 neurons; 160 µM, 24 h; relative to: untreated).
The IC50 of `C[C@H]1COCCN1c1nc(NCc2cccnc2C(F)(F)F)c2cccnc2n1` is reported as > 250 µM (THP-1 cells; cytotoxicity).
`Cc1nc2ccccc2n1Cc1nnc2sc(-c3ccc(F)c(Cl)c3)nn12` has a CC50 of 7.4 µM (HEp-2; cytotoxicity).
The viability of `CC(C)C[C@@H](NC(=O)[C@H](N)CCCCN)C(=O)N[C@@H](C(=O)N[C@H](Cc1ccccc1)C(=O)N[C@H](Cc1ccccc1)C(N)=O)C(C)C` is reported as 100% (NGF-differentiated PC-12 neurons; 5 µM, 24 h; relative to: untreated).
`CC[C@H](C)[C@H](NC(=O)[C@H](CCCNC(=N)N)NC(=O)[C@@H](NC(=O)[C@H](CC(C)C)NC(=O)[C@H](Cc1c[nH]c2ccccc12)NC(=O)[C@H](Cc1ccc(O)cc1)NC(=O)[C@@H](NC(=O)[C@H](CO)NC(=O)[C@@H](NC(=O)[C@H](CCCNC(=N)N)NC(=O)[C@H](CCC(N)=O)NC(=O)[C@H](CCCNC(=N)N)NC(=O)[C@@H]1CCCN1C(=O)[C@H](CC(C)C)NC(=O)[C@H](CO)NC(=O)[C@@H](NC(=O)[C@H](CC(C)C)NC(=O)[C@@H]1CCCN1C(=O)[C@H](CCC(N)=O)NC(=O)[C@H](CCCCN)NC(=O)[C@H](Cc1c[nH]cn1)NC(=O)[C@H](CS)NC(=O)[C@H](CCCNC(=N)N)NC(=O)[C@H](CCCCN)NC(=O)[C@H](CO)NC(=O)[C@H](CC(C)C)NC(=O)[C@H](CO)NC(=O)[C@H](Cc1ccccc1)NC(=O)[C@H](CC(C)C)NC(=O)[C@H](CCCCN)NC(=O)[C@H](Cc1c[nH]cn1)NC(=O)[C@@H](NC(=O)[C@@H](NC(=O)[C@H](CCCCN)NC(=O)[C@H](CCC(N)=O)NC(=O)[C@H](C)NC(=O)[C@H](CCCCN)NC(=O)[C@H](CC(C)C)NC(=O)[C@H](Cc1ccccc1)NC(=O)[C@H](CC(C)C)NC(=O)[C@H](CCC(N)=O)NC(=O)[C@H](CCCCN)NC(=O)[C@@H](N)CCSC)[C@@H](C)CC)C(C)C)[C@@H](C)CC)[C@@H](C)O)[C@@H](C)O)[C@@H](C)O)C(=O)O` gave a CC50 of 21.9 µM (THP-1, PMA-differentiated; cell viability, MTT).
`Cc1nc2ccccc2n1Cc1nnc2sc(-c3cc(CC(C)C)[nH]n3)nn12` gave a CC50 of 43.2 µM (HEp-2; cytotoxicity).
For `CCCCSCCCNC(=O)C1CCN(Cc2nc(-c3ccc(CC)cc3)oc2C)CC1`, the cytotoxicity efficacy was -21.3% (Vero-E6; CellTiter-Glo ATP; concentration not given, 72 h, retest 8-point duplicates; relative to: DMSO 0%, hyamine -100%, more negative, more toxic).
For `CC(=O)O[C@H]1CC[C@]2(C)[C@H]3CC[C@]4(C)Oc5oc(C)cc(=O)c5C[C@H]4[C@]3(C)CC[C@H]2C1(C)C`, the cytotoxicity was 0% (Calu-3; 50 µM).
`N.N.[Cl][Pt][Cl]` — result for “micronucleus frequency ratio”: 5 fold (HepaRG; at 55% cytotoxicity; relative to: HepG2).
`O=C(NCc1ccccc1Cl)C1CCCN(Cc2cccc(-c3ccc(F)cc3F)c2)C1` (stereo not shown) gave a cytotoxicity efficacy of -11.4% (Vero-E6; CellTiter-Glo ATP; concentration not given, 72 h, first round 5-point; relative to: DMSO 0%, hyamine -100%, more negative, more toxic).
`CCN(N=O)C(N)=O`: “lowest effective concentration” 1020 µM (HepaRG; micronucleus formation; 24 (unit not given)).
For `CC(C)C[C@@H](NC(=O)[C@H](N)CCCCN)C(=O)N1CCC[C@@H]1C(=O)N[C@H](Cc1ccccc1)C(=O)N[C@H](Cc1ccccc1)C(=O)N[C@H](C)C(=O)N[C@H](CCC(=O)O)C(N)=O`, the viability was 85.1% (NGF-differentiated PC-12 neurons; 80 µM, 24 h; relative to: untreated).
With `CCCCN1CCC(N(Cc2ccccc2)C(=O)Nc2ccc(Cl)c(Cl)c2)CC1` the LD50 was 31.8 µM (HCC95 cells; CellTiter-Glo).
`CCCCCCCCCCCC[N+](C)(C)Cc1ccccc1.[Br-]` gave a cell viability of ~40% (PC-12; CCK-8; 10 µM, dark or illumination).
For `COc1ccc(CCNC(=O)c2cc(Nc3ccccc3)nc3ccccc23)cc1OC`, the maximum response was -5.27% (Vero-E6; CellTiter-Glo ATP; 72 h, first round 5-point; relative to: DMSO 0%, hyamine -100%, more negative, more toxic).
The TC50 of `O=S(=O)(c1ccc(-c2ccc3nccc(Nc4ccccc4)c3c2)cc1)N1CCOCC1` is reported as > 20 µM (NIH 3T3; cytotoxicity, PrestoBlue; 96 h, 2% FBS).
With `CC(C)C[C@H](NC(=O)[C@H](C)NC(=O)[C@@H](NC(=O)[C@H](CCCNC(=N)N)NC(=O)[C@H](CC(C)C)NC(=O)[C@H](Cc1c[nH]c2ccccc12)NC(=O)[C@@H]1CCCN1C(=O)[C@@H](N)CCCCN)C(C)C)C(=O)N[C@@H](CS)C(=O)N1CCC[C@H]1C(=O)NCC(=O)O` the viability was 101% and 92.4% and 89.4% (HEp-2; WST-1; 8 µM, 24 h).
`C/C=C(/C)C(=O)OC[C@H]1[C@@H](Cc2ccc(C(F)(F)F)cc2)CO[C@@H]1c1ccc(F)cc1` has an LDH release of 6 ± 1.4% (rat aortic VSMCs; 30 µM, 24.5 h).
The maximum response of `CNCCN(C)c1nc(NC(C)c2ccccc2)c2ccccc2n1` (stereo not shown) is reported as -1.93% (Vero-E6; CellTiter-Glo ATP; 72 h, second round 5-point; relative to: DMSO 0%, hyamine -100%, more negative, more toxic).
`O=S(=O)(c1ccc(-c2ccc3nccc(Nc4ncc(Cl)cn4)c3c2)cc1)N1CCOCC1` gave a TC50 of > 20 µM (NIH 3T3; cytotoxicity, PrestoBlue; 96 h, 2% FBS).
For `CN(CC[C@H](Oc1cccc2ccccc12)c1cccs1)N=O`, the relative survival was 28.4% (TK6; 7.5 µM, 4 h, with: hamster liver S9; relative to: vehicle).
The maximum response of `COc1cccc(-c2ccccc2NC(=O)C2CCN(Cc3ccccc3F)CC2)c1` is reported as -1.68% (Vero-E6; CellTiter-Glo ATP; 72 h, first round 5-point; relative to: DMSO 0%, hyamine -100%, more negative, more toxic).
`c1ccc2c(-c3nn4c(Cn5cnc6ccccc65)nnc4s3)cccc2c1` gave a CC50 of > 100 µM (HEp-2; cytotoxicity).
`Cc1c2ccccc2c(C)c2c1ccc1ccccc12` — result for “micronuclei fold increase”: 3.6 fold (HepaRG; maximum tested, 24 (unit not given); relative to: vehicle).
`CC(C)C[C@@H](NC(=O)[C@H](N)CCCCN)C(=O)N[C@H](CC(C)C)C(=O)N[C@H](Cc1ccccc1)C(=O)N[C@H](Cc1ccccc1)C(=O)N[C@H](C)C(N)=O` has a viability of 99.8% (NGF-differentiated PC-12 neurons; 5 µM, 24 h; relative to: untreated).
With `O=NN1CC2CC(C1)c1cc3nccnc3cc12` the relative survival was 122% (TK6; 40 µM, 4 h, with: hamster liver S9; relative to: vehicle).
For `COc1ccc(CC(=O)NC2CCN(Cc3ccc(-c4ccccc4OC)cc3)C2)cc1` (stereo not shown), the cytotoxicity efficacy was -11.4% (Vero-E6; CellTiter-Glo ATP; concentration not given, 72 h, retest 8-point duplicates; relative to: DMSO 0%, hyamine -100%, more negative, more toxic).
With `COc1ccc(-c2nn3c(Cn4nnc5ccccc54)nnc3s2)cc1OC` the CC50 was > 100 µM (HEp-2; cytotoxicity).
Under “late apoptotic cells”, `CC(C)(c1ccc(O)cc1)c1ccc(O)cc1` is recorded as 9.19 ± 1.56% (HepG2 spheroids, dissociated; annexin V-FITC/PI flow cytometry; 40 µM, 24 h).
`CN1CCCN(S(=O)(=O)c2ccc(-c3ccc4c(Nc5ccc(OCc6cccc(F)c6)c(Cl)c5)nncc4c3)cc2)CC1` has a TC50 of 44 µM (NIH 3T3; PrestoBlue; 2% FBS medium; 96 h).
`Cc1ccc(CCNC2CCCc3c2[nH]c2ccc(C)cc32)cc1` (stereo not shown) has a non-viable cells of 16.8 ± 13.1% (A549; 50 µM, 23 h).
`CCc1ccc(Sc2cc(C(=O)NCCCN3CCC(C)CC3)c3ccccc3n2)cc1` has a maximum response of -21.9% (Vero-E6; CellTiter-Glo ATP; 72 h, first round 5-point; relative to: DMSO 0%, hyamine -100%, more negative, more toxic).
The viability of `CC(C)C[C@@H](NC(=O)[C@H](N)CCCCN)C(=O)N1CCC[C@@H]1C(=O)N[C@H](Cc1ccccc1)C(=O)N[C@H](Cc1ccccc1)C(=O)N[C@H](C)C(N)=O` is reported as 91.8% (NGF-differentiated PC-12 neurons; 80 µM, 24 h; relative to: untreated).
